Measured values of several laboratories.
Lines come from different studies, so protocols differ.
Sequence of UniProt P51813 (whole entry, looked up): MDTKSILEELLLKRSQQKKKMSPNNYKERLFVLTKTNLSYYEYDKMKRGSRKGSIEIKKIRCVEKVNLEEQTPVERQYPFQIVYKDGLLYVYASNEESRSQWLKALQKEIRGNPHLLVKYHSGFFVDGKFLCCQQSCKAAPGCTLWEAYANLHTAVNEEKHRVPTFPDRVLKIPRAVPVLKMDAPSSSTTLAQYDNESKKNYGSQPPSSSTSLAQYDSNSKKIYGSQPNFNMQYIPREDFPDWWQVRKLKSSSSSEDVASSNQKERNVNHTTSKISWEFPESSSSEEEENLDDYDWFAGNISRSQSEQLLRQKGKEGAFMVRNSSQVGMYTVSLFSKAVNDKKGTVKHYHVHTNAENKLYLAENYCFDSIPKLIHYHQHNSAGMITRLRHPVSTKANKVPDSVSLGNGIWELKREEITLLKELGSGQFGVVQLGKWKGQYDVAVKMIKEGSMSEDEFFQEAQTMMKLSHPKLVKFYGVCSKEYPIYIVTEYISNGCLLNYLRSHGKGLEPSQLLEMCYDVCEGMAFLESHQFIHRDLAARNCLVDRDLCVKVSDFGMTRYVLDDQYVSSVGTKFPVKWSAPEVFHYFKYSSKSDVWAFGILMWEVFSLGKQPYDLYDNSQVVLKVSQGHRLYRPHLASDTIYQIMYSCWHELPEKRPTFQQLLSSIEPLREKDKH
Sequence of UniProt P29317 (whole entry, looked up): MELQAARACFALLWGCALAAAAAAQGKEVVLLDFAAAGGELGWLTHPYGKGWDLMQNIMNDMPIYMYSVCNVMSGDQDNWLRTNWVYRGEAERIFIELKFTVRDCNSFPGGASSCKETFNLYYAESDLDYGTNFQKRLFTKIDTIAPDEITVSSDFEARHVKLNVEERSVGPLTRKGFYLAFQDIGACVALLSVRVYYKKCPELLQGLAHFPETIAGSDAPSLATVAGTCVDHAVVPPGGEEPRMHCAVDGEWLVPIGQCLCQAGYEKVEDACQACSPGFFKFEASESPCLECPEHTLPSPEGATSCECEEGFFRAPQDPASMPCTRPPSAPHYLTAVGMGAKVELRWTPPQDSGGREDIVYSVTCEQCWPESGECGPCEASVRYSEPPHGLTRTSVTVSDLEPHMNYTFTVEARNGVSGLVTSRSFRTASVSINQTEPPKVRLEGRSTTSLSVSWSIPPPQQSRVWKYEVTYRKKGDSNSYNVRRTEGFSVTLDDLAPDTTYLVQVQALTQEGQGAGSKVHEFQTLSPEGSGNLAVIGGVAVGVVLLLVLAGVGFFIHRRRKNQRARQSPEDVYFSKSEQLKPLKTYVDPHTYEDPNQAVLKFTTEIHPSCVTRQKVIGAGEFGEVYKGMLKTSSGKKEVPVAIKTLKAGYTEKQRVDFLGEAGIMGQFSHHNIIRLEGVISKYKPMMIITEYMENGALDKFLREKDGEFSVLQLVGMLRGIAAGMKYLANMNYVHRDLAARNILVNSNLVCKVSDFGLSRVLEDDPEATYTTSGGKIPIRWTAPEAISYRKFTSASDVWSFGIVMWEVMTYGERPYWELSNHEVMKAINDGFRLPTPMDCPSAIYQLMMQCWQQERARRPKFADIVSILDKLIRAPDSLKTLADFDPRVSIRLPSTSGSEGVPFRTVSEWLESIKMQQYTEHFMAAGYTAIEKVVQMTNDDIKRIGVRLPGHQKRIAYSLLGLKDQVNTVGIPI
Sequence of UniProt Q14004 (whole entry, looked up): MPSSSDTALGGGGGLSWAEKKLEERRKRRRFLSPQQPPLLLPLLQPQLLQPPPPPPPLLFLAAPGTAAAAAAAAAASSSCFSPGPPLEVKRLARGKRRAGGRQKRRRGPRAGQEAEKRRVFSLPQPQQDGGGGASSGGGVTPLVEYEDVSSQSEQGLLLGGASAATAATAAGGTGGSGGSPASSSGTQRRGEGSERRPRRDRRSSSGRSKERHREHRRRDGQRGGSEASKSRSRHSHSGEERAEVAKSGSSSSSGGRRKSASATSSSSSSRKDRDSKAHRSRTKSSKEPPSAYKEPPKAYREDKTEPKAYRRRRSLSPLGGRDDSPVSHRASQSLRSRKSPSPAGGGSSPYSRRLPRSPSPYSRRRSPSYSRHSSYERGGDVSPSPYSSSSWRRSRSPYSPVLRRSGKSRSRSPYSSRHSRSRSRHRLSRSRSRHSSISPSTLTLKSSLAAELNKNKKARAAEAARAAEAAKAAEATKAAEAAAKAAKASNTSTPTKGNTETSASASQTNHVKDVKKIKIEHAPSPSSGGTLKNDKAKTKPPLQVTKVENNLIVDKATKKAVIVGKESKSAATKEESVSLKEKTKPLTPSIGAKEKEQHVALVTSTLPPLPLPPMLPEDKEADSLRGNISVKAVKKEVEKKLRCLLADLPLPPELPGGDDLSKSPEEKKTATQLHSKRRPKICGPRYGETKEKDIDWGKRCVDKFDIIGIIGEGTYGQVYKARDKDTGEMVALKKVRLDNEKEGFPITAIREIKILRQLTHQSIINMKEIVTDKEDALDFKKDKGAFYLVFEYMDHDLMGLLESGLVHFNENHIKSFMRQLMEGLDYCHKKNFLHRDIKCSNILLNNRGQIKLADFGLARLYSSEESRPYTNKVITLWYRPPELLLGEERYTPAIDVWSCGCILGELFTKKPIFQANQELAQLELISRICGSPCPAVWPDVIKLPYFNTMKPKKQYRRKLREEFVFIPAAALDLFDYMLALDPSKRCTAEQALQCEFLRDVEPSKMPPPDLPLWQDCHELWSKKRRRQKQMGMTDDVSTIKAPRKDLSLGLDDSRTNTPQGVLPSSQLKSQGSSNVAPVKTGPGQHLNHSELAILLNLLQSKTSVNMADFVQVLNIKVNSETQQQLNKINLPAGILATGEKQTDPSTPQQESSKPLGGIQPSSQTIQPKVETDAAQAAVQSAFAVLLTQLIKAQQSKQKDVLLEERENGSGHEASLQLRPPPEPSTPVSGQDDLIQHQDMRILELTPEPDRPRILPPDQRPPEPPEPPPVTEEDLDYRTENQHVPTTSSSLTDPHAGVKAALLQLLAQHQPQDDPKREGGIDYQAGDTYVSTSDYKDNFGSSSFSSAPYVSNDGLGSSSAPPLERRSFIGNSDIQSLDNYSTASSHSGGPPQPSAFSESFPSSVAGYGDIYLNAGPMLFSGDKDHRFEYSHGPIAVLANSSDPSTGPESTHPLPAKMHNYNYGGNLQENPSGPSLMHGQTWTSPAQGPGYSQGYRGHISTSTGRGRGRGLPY

Cc1cccc(N(O)N=Nc2ccc(S(=O)(=O)Nc3cc(C)on3)cc2)c1 — inhibition (ABTS scavenging; 20 µg/mL): 37.1%
CNc1ncc2c(/C=C/C(=O)N3CCC(OC)CC3)nn(Cc3cccc(C(F)(F)F)c3)c2n1 — remaining activity (Cyclin-dependent kinase 13, with cyclin K (CDK13, Homo sapiens, UniProt Q14004); enzyme activity, inhibitor, radiometric; 1 µM): 108%
C=CC(=O)N1CCC(COCC(=O)N2CCN(c3nc(-c4cnc(N)nc4C(F)F)nc(N4CCOC[C@@H]4C)n3)CC2)CC1 — remaining binding (EPHA2 (Homo sapiens, UniProt P29317); binding, competition with immobilised ligand; 1 µM): 100%
CC(=NNC(=O)c1ccncc1)c1ccc(Nc2nnc(-c3ccc(Cl)cc3)c3ccccc23)cc1 — cell death (MCF7; cell growth or viability, MTT; 0.156 µM): 75.4%
Cc1cc(CCCOc2c(C)cc(-c3noc(C(F)(F)F)n3)cc2C)on1 — IC50 (Enterovirus; cytopathic effect; HeLa): 3300 nM
COc1cc(-c2cncc3c2CN(C)Cc2cc(N4CCNCC4)ccc2-3)cc(OC)c1OC — remaining activity (BMX (Homo sapiens, UniProt P51813); enzyme activity, inhibitor; 1 µM): 107%
CC1=C(Cn2cc(CN3CCOCC3)nn2)C(=O)c2ccccc2C1=O — IC50 (Schistosoma mansoni; parasite growth; 72 h, larva): 980 nM
COc1cc(-c2oc3cc(O)cc(O)c3c(=O)c2O)ccc1O — IC50 (Human immunodeficiency virus 1; viral replication; TZM-bl, BAL; 48 h): 2220 nM
CO[C@@]1(NC(=O)C2SC(=C(C(N)=O)C(=O)O)S2)C(=O)N2C(C(=O)O)=C(CSc3nnnn3C)CS[C@@H]21 (stereo partly drawn) — IC50 (Trypanosoma cruzi; parasite growth, absorbance; Vero, TULAHUEN; 96 h, intracellular, amastigote): > 200000 nM
O=C(Cn1ccnc1[N+](=O)[O-])NCc1ccccc1 — IC50 (Trypanosoma cruzi; parasite growth; MRC-5 SV2, TULAHUEN; intracellular, amastigote): 2110 nM
CC(=NNC(=O)c1ccccc1)c1ccc(Nc2nnc(-c3ccc(Cl)cc3)c3ccccc23)cc1 — viability (MCF7; cell growth or viability, MTT; 0.312 µM, 24 h): 99.4%
O=C(Cn1ccnc1[N+](=O)[O-])NCc1ccccc1 — IC50 (Trypanosoma cruzi; parasite growth, absorbance; Vero, TULAHUEN; 96 h, intracellular, amastigote): 2430 nM
C[C@@H](O[C@H]1OCCN(Cc2n[nH]c(=O)[nH]2)[C@H]1c1ccc(F)cc1)c1cc(C(F)(F)F)cc(C(F)(F)F)c1 — IC50 (Human immunodeficiency virus 1; viral replication, inhibitor, ELISA; human PBMC, NL43): 8000 nM
O=C(Nc1cccc2c(=O)cc(-c3nnn[nH]3)oc12)c1ccc(OCCCCc2ccccc2)cc1 — IC50 (Trypanosoma cruzi; parasite growth, absorbance; Vero, TULAHUEN; 96 h, intracellular, amastigote): 84800 nM
CC1=C(Cn2cc(CN)nn2)C(=O)c2ccccc2C1=O — IC50 (Schistosoma mansoni; parasite growth; 72 h, larva): 810 nM
O=C(O)/C=C/c1ccc(O)c(O)c1 — IC50 (Human immunodeficiency virus 1; viral replication; TZM-bl, BAL; 48 h): > 100000 nM
CC[C@]1(O)C[C@@H]2CN(CCc3c([nH]c4ccccc34)[C@@](C(=O)OC)(c3cc4c(cc3OC)N(C)[C@H]3[C@@](O)(C(=O)OC)[C@H](OC(C)=O)[C@]5(CC)C=CCN6CC[C@]43[C@@H]65)C2)C1 — IC50 (Trypanosoma cruzi; parasite growth, absorbance; Vero, TULAHUEN; 96 h, intracellular, amastigote): 160 nM
COC(=O)Nc1nc2ccc(C(=O)c3ccccc3)cc2[nH]1 — IC50 (Cryptococcus neoformans; microbial growth, broth dilution; 72 h, clinical isolate): 1250 nM

Some of these lines once more:
CC(=NNC(=O)c1ccncc1)c1ccc(Nc2nnc(-c3ccc(Cl)cc3)c3ccccc23)cc1 — cell death (MCF7; cell growth or viability, MTT; 0.156 µM): 75.4%
O=C(Cn1ccnc1[N+](=O)[O-])NCc1ccccc1 — IC50 (Trypanosoma cruzi; parasite growth, absorbance; Vero, TULAHUEN; 96 h, intracellular, amastigote): 2430 nM
